# Assay results gathered from unrelated publications.
# Every numbered part comes from another study and shows a few of its results, in no order. Positions count from the first letter of the parent shown.

# Block 1 — technique: competition protein-binding microarray; form: double-stranded DNA, one strand shown; sample: in vitro; tested at: 2 µM; with: Cbf1 competitor, 0.05 µM; reading: higher = stronger binding; shared flanks, not repeated: … GTCTTGATTCGCTTGACGCTGCTG
# Target: Phosphate system positive regulatory protein PHO4, full length, GST-tagged (PHO4, Saccharomyces cerevisiae, UniProt P07270, residues 1-312)
# Setting: whole 60-bp probe, lowest competitor level
# Construct (chain): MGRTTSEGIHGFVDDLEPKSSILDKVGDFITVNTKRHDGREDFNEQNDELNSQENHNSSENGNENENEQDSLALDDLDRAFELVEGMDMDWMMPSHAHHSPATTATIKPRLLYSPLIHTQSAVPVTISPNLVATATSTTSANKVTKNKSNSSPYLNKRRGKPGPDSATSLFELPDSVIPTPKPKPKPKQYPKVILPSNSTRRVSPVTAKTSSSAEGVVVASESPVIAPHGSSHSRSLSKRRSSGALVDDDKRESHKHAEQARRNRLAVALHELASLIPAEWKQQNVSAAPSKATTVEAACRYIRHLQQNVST
Strand,fluorescence intensity [a.u.]
GTTGTTGCTATCCATCACGTGATGGATTTTTCCGAG,15100
CTTTCCCGATCTTGTTAGGTGGGTGTAGCACATTTG,4140
AAGAAATGAGGCCGTCACAGATGTTAAGAATTGAAG,4940
CGTCCTAGTGATTGTCACACCACTTCCATGAGGAAG,5440
CTAACGAAGGTTTGCGAAGTGGGTGACAAGCCAAGT,3260
AAGTTTGCTGCCCTTCATGTGCTTTTATGTATGCTT,6020
CGTCCTAGTGATTTTCACGTGGCTTCCATGAGGAAG,14400
AAAGCGGTAATTTGTTGCGTGGGTGCAGATATCTAT,6930
CTATATACATGTATACACGTGAGATAATAAATTATG,15400
ACTTTTATCGGTTCATGTGTGACGGCTCAGCTCGTC,5640
CTAACGAAGGTTTTTCACGTGTCCTACAAGCCAAGT,12300
AAATTACTAAGTTTTCACGTGATCTACCCCGTATGA,13300
CACTGGCTGCTCCATCACGGGTCTCGAGGCGGAGAC,5920
AAATTACTAAGTTGGATAGTGGGTGACGCCGTATGA,3900
AAAGCGGTAATTTGAGGTGTGGGTGCAGATATCTAT,6110
GCCTTAAGATTCTGTCATGCGGGTGTCGATAGCGTC,5730
TGCAGCACCCAGCTTCCCGTGTATCCATACCACCCT,6240
CGGGGTTAAGTTTTTCACGTGTAGTGCTTGCAGCAG,9940
CCGAAATTTGCTTCACACGTGTCTGTTGATAAGCAA,16900
TGGCCTAAGGTGAAGGTCGTGCTTTTTGTTCAATTG,7810
CTTCTGTAAATTTGGCCGGTGGGTGGACGCGCCCCG,4240
CGTCCTAGTGATTGCACAGTGGGTGCCATGAGGAAG,6790
TGGCGCTTGACTCCACTCGTGAGTCTTGTTTGGACT,4320
CGGGGTTAAGTTTGCGAGGTGGGTGGCTTGCAGCAG,4580

# Block 2 — technique: protein-binding microarray; form: double-stranded DNA, one strand shown; sample: in vitro; tested at: 2200 nM top; setting: 60-bp whole probe; with: salmon DNA 0.4 mg/ml; baseline: random background probes; reading: higher = stronger binding; shared flanks, not repeated: GCCTAGCAC … GTCTTGATTCGCTTGACGCTGCTG
# Target: Interferon regulatory factor 7, full length, phosphomimetic (IRF7, Homo sapiens, UniProt Q92985, residues 1-503, S471D/S472D/S475D/S476D/S477D/S483D/S484D/S487D)
# Construct (chain): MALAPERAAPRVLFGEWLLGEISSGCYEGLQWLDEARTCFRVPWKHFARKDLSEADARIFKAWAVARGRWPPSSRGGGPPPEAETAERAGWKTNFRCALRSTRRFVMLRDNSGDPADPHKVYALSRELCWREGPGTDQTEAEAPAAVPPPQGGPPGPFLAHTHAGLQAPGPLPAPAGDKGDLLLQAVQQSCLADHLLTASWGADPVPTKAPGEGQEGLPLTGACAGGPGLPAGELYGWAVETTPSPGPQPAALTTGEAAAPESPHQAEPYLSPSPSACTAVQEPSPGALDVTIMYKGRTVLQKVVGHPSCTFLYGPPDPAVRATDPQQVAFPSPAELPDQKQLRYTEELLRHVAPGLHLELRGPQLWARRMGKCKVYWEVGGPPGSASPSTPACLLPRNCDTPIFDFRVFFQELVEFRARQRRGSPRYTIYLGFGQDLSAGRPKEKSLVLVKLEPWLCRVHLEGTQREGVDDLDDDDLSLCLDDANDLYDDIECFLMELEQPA
Strand,fitted relative affinity [z-score]
TCAGCTTTTTAGATCGTACTGTGCTAG,0.556
TTAGGACTGGGTCGCGGTTAGTGCTAG,-0.505
GACGATTTCAGTTTAGAGACGTGCTAG,2.19
TTCGGTATCCTACTGCTTTAGTGCTAG,1.65
TTATTTATAAATTATCTTTAAGTGCTA,-0.551
GACGGACTGAGGTTTCGGGACGTGCTA,1.17
TTAGGAGTGGGGTATCGGTTAGTGCTA,-0.202
TTAGAACTGGGGTATCGATTGGTGCTA,0.158
TCAGTTTCTCCTTTCGGACTGTGCTAG,5.95
GACGATCGCAGTCTCGAGACGTGCTAG,0.28
CACGATTTCAGACTGGAGACGTGCTAG,0.778
TCATCTTCCTTCATGGCACTGTGCTAG,1.85
GACGCTTTCAGTTTCGAGACGTGCTAG,8.06

# Block 3 — target: CCNE1, cyclin fold, Cln2 fusion (human); technique: yeast growth competition, sequencing; sample: yeast; setting: weak parent motif; baseline: not given; reading: higher = stronger binding
# Starting sequence: SLBP docking peptide (human); ARYKRKLLINDFG
Variant,normalised enrichment score
A1T,1.26
G13K,0.999
D11C,1.18
Y3A,1.22
N10Y,0.757
G13R,-0.0701
I9M,0.615
I9G,0.779
R2F,0.674
R2M,0.379
I9D,0.0106
K4H,1.16
A1D,0.808
N10V,0.403
R5E,0.618
N10W,1.81
R2H,0.669

# Block 4 — target: ATF7, bZIP domain (human); technique: DHFR protein complementation; sample: yeast; baseline: wild-type JUN-FOS pair; reading: higher = stronger binding
# Setting: single substitutions, most at no-binding floor
# Starting sequence: JUN, bZIP domain (human); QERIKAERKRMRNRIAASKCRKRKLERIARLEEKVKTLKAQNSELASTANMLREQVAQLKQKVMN; partner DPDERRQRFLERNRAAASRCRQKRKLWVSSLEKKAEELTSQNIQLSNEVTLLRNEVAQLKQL
Variant,binding fitness
L38G,-1.46 natural log
V35R,-1.36 natural log
S47R,-0.713 natural log
A40F,-1.15 natural log
A40R,-0.84 natural log
A40T,-0.968 natural log
S47C,-0.941 natural log
Q55P,-1.44 natural log
R30K,-0.942 natural log
E44Q,-0.939 natural log
T37M,-0.585 natural log
L45H,-1.43 natural log
L31H,-1.63 natural log
L31G,-1.47 natural log
S47D,-0.864 natural log

# Block 5 — technique: universal PBM; form: double-stranded DNA, one strand shown; sample: in vitro; tested at: not given; reading: higher = stronger binding
# Target: Sal-like protein 4, full length isoform B (SALL4, Homo sapiens, UniProt Q9UJQ4-2, residues 1-616)
# Setting: 8-mer, flanks averaged, mean of replicates
Strand,E-score
CGATACTC,-0.0768
CTCCAGTA,0.0632
GCGCAGGA,-0.205
ATAATTAA,0.408
CAACCGGG,-0.34
CCATACAC,-0.028
GATTTACC,0.0734
AAGTTTGC,0.0563
ATGATCTC,0.0372
AGATACTG,0.12
ACCCGAAT,0.0139
GCGGGAGA,-0.258
ACTTATCG,0.00964
CCATGCCA,-0.0579
CGTGTGGA,-0.259
ACACTATA,0.261
CATGTCGA,-0.0506

# Block 6 — technique: protein binding microarray; form: double-stranded DNA, one strand shown; sample: in vitro; tested at: not given; baseline: not given; reading: higher = stronger binding
# Target: Histone acetyltransferase KAT6A, both winged helices, GST fusion (KAT6A, Homo sapiens, UniProt Q92794, residues 1-181)
# Setting: 8-mer, flanks averaged, mean of 2 arrays, mostly near background
# Residues (chain): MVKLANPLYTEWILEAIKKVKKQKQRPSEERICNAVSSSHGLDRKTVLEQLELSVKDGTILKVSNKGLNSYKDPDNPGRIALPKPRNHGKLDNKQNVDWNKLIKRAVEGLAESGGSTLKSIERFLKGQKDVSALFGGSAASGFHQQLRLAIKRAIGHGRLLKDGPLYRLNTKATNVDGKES
Strand,E-score
TAAGATGA,-0.126
CGTCGCGA,0.324
AAAATTTT,0.0972
ATCAAATC,-0.107
ATACCAGA,-0.226
CAGGGAGC,-0.0646
CTTTCACA,-0.0562
TAACAACA,-0.113
ACCCATCC,-0.152
AGTGCTCC,0.0464
CCACTATC,-0.18
AAGACCTT,-0.102
TTATGCAA,-0.189
CACTATGA,-0.163
CCATAGTC,-0.147
AGGTTTGG,-0.13
AGAACTCC,-0.157
CGGGTCCC,0.187
CAGCCTGG,-0.137
AGCCTGAC,-0.124
AAGAGCAT,-0.17
TATGGACA,-0.134
AATGGGGT,-0.117
CATACACA,-0.121
TGAGCTCA,-0.068

# Block 7 — technique: DHFR PCA, deep sequencing; sample: yeast; with: (+)-ABA 1.4 µM; baseline: wild-type fitted maximum; reading: higher = stronger binding
# Target: ABI1, truncated, D143A, DHFR fusion (Arabidopsis thaliana)
# Setting: methotrexate growth selection, single substitutions
# Starting sequence: PYL1, truncated, DHFR fusion (Arabidopsis thaliana); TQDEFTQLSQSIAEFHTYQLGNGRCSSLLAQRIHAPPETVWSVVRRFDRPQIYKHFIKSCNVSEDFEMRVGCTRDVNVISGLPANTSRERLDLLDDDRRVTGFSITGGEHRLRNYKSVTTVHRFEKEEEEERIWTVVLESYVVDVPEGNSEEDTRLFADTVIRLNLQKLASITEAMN; partner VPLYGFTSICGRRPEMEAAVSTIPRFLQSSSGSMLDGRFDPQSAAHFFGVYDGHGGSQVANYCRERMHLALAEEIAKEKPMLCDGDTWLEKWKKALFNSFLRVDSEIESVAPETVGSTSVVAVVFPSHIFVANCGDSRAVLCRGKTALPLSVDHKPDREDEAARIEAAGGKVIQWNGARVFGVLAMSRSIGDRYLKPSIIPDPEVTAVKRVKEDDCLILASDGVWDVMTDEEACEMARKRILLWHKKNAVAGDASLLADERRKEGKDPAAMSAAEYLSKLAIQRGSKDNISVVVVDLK
Variant,relative binding score [%]
V137N,3.87
F5V,59.8
Y18I,-11.4
G81N,14.5
E147T,32
L93T,38.3
S171W,22.7
D96K,4.27
S26E,-12.9
R49F,6.25
I133E,90
E129C,59.8
T173L,-2.32
S150R,5.12
P37H,-8.41
T86I,29.5
E64F,17.1
K116G,-3.86
H122C,-2.02
L166K,-3.18
R69W,5.47

# For quick reference, copied from above (block 1):
Strand,fluorescence intensity [a.u.]
AAGAAATGAGGCCGTCACAGATGTTAAGAATTGAAG,4940
CGTCCTAGTGATTGTCACACCACTTCCATGAGGAAG,5440
CTAACGAAGGTTTGCGAAGTGGGTGACAAGCCAAGT,3260
AAGTTTGCTGCCCTTCATGTGCTTTTATGTATGCTT,6020
CGTCCTAGTGATTTTCACGTGGCTTCCATGAGGAAG,14400
AAAGCGGTAATTTGTTGCGTGGGTGCAGATATCTAT,6930
CTATATACATGTATACACGTGAGATAATAAATTATG,15400
ACTTTTATCGGTTCATGTGTGACGGCTCAGCTCGTC,5640
CTAACGAAGGTTTTTCACGTGTCCTACAAGCCAAGT,12300
AAATTACTAAGTTTTCACGTGATCTACCCCGTATGA,13300
CACTGGCTGCTCCATCACGGGTCTCGAGGCGGAGAC,5920
AAATTACTAAGTTGGATAGTGGGTGACGCCGTATGA,3900
AAAGCGGTAATTTGAGGTGTGGGTGCAGATATCTAT,6110
GCCTTAAGATTCTGTCATGCGGGTGTCGATAGCGTC,5730
TGCAGCACCCAGCTTCCCGTGTATCCATACCACCCT,6240
CGGGGTTAAGTTTTTCACGTGTAGTGCTTGCAGCAG,9940
CCGAAATTTGCTTCACACGTGTCTGTTGATAAGCAA,16900
